Measured values collected from several papers.
Compare with care: the assays were run in different laboratories. ± gives the spread as reported.
Cell line: A2780

SMILES | test | conditions | how to read | measurement | value
CC1(C)OB(c2ccc(COC(=O)N[c-]3cccc3)cc2)OC1(C)C.[Fe+2].c1cc[cH-]c1 | qPCR, item: CHOP | 20 µM, 24 h, unit not given | reference: untreated | mRNA level | 229 ± 51.4
CNS(=O)(=O)Nc1nccc(Cc2c(C)c3ccc(Oc4ncccc4F)cc3oc2=O)c1F | cell viability | 7 days | – | IC50 | > 1000 nM
CCOc1cncc(-c2ccc(NC(=O)C3(c4ccnc(NS(=O)(=O)C5CC5)n4)CCOCC3)nc2)n1 | cell proliferation, CellTiter-Glo | 72 h | – | IC50 | 116 nM
C[C@@H]1CC[C@@H]([C@@](O)(CNCc2ccc(F)cc2)COCc2ccc(F)cc2)[C@H](OCc2ccc(F)cc2)C1 | cell growth or viability, MTT | 30 µM, 72 h | – | inhibition | 95.7%
CC(C)c1ccc(N(C)c2ccc3c(c2)OCC[C@H]3CNc2cnccc2C(=O)O)cc1 | cell growth or viability, ATP luminescence | 7 days | – | IC50 | 2.14 nM
CCN(C(=O)c1cc(F)ccc1Oc1nncnc1N1CCC2(C1)CN([C@H](CCCN(C)CCOC)C(C)C)C2)C(C)C | cell growth or viability | 72 h | – | GI50 | > 10000 nM
C[C@@H]1CC[C@@H]([C@](O)(CNCc2cccc(F)c2)COCc2ccccc2)[C@H](OCc2ccccc2)C1 | cell growth or viability, MTT | 72 h | – | IC50 | 1410 nM
CC1(C)OB(c2ccc(COC(=O)N(Cc3cccc(CN4CCCCC4)c3)[c-]3cccc3)cc2)OC1(C)C.[Fe+2].c1cc[cH-]c1 | viability, MTT | 96 h | – | IC50 | 7000 ± 2000 nM
CC(C)(C)c1nc(-c2cccc(NS(=O)(=O)c3c(F)cccc3F)c2F)c(-c2ccnc(N)n2)s1.Cc1[nH]c2ccccc2c1CCNCc1ccc(/C=C/C(=O)NO)cc1 | annexin V/PI flow cytometry | concentration not given, 48 h | reference: untreated | early apoptotic cells | 16.7 ± 3.3%
C[C@@H]1CC[C@@H]([C@](O)(COCc2ccccc2)Cn2cnc3ccccc32)[C@H](OCc2ccccc2)C1 | cell growth or viability, MTT | 72 h | – | IC50 | 4320 nM

For quick reference, copied from above:
SMILES | test | conditions | how to read | measurement | value
C[C@@H]1CC[C@@H]([C@](O)(CNCc2cccc(F)c2)COCc2ccccc2)[C@H](OCc2ccccc2)C1 | cell growth or viability, MTT | 72 h | – | IC50 | 1410 nM
